Measured values pooled from the literature.
Parts stem from different laboratories: compare values within a part only. Substitutions count along the parent as printed.

Block 1
Target: Histone acetyltransferase KAT6A, winged helix 1, GST fusion (KAT6A, Homo sapiens, UniProt Q92794, residues 1-85)
Method: protein binding microarray
Molecule type: double-stranded DNA, one strand shown
Medium: in vitro
Tested at: not given
Notes: 8-mer, flanks averaged, mean of 2 arrays, mostly near background
Baseline: not given
Reading: higher = stronger binding
Quantity: E-score
Construct (chain): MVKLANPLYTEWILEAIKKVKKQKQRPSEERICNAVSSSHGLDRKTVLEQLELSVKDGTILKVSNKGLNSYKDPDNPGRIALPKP
Oligonucleotide = ACTCCGGA; value = 0.0837
Oligonucleotide = CATAAGGC; value = 0.0206
Oligonucleotide = GATGACAA; value = -0.0638
Oligonucleotide = AAGTAAAT; value = -0.185
Oligonucleotide = GGTCTTCA; value = -0.0174
Oligonucleotide = AGGACGAA; value = -0.0556
Oligonucleotide = GAATACCA; value = -0.174
Oligonucleotide = CGCCCAGA; value = -0.0323
Oligonucleotide = GCCGACGA; value = 0.203
Oligonucleotide = CGGAGAGC; value = 0.211
Oligonucleotide = TGAATAAA; value = 0.00268
Oligonucleotide = ATTCGGTG; value = -0.199
Oligonucleotide = TTGCTAAA; value = -0.116
Oligonucleotide = GAAGGGGA; value = -0.139

Block 2
Target: Prothrombin, mature alpha-thrombin (F2, Homo sapiens, UniProt P00734)
Method: aptamer microarray, sandwich
Molecule type: DNA with 2'F-ANA
Medium: in vitro
Tested at: 200 nM
Notes: whole 15-mer aptamer, many near background
With: Cy3 exosite-II aptamer, 400 nM
Reading: higher = stronger binding
Quantity: mean fluorescence intensity
Oligonucleotide: GGTTGGTGTGGTTGG
Modification = 2'F-ANA at 2 6 7 13; value = 286 a.u.
Modification = 2'F-ANA at 1 2 4 5 6 12 13; value = 70 a.u.
Modification = 2'F-ANA at 1 2 5 10 11 12 13; value = 88.3 a.u.
Modification = 2'F-ANA at 2 3 4 5 6 7 9 10 13; value = 52.6 a.u.
Modification = 2'F-ANA at 1 5 6 8 11 12 14; value = 54.3 a.u.
Modification = 2'F-ANA at 3 5 6 9 10 14; value = 47.7 a.u.
Modification = 2'F-ANA at 1 6 7 8 9 12 13 14 15; value = 83.1 a.u.
Modification = 2'F-ANA at 2 3 4 5 6 7 9 11 12 13 14 15; value = 51.2 a.u.
Modification = 2'F-ANA at 5 6 8 10 13 14 15; value = 111 a.u.
Modification = 2'F-ANA at 6 8 9 12 13 14 15; value = 157 a.u.
Modification = 2'F-ANA at 1 2 3 6 7 9 12 14; value = 75.6 a.u.
Modification = 2'F-ANA at 1 2 4 5 6 7 8 9 10 11 12 13; value = 52.1 a.u.
Modification = 2'F-ANA at 4 6 7 8 11 12 15; value = 427 a.u.
Modification = 2'F-ANA at 1 6 8 10 11 12 14; value = 48.5 a.u.
Modification = 2'F-ANA at 1 2 4 5 6 11; value = 55.2 a.u.
Modification = 2'F-ANA at 1 2 4 5 8 9 13 15; value = 115 a.u.
Modification = 2'F-ANA at 2 5 8 9 10 15; value = 49.3 a.u.
Modification = 2'F-ANA at 1 3 5 6 9 10 13 14 15; value = 47.3 a.u.
Modification = 2'F-ANA at 1 2 4 5 6 8 9 12 15; value = 126 a.u.
Modification = 2'F-ANA at 1 3 4 5 7 8 12 14; value = 63.8 a.u.
Modification = 2'F-ANA at 2 4 5 6 7 8 14; value = 45.3 a.u.
Modification = 2'F-ANA at 1 2 5 6 7; value = 57 a.u.

Block 3
Target: CCND3, cyclin fold, Cln2 fusion (human)
Method: yeast growth competition, sequencing
Medium: yeast
Notes: weak parent motif
Baseline: not given
Reading: higher = stronger binding
Quantity: normalised enrichment score
Parent: PKN2 docking peptide (human); VSAVRKLDFSDTM; partner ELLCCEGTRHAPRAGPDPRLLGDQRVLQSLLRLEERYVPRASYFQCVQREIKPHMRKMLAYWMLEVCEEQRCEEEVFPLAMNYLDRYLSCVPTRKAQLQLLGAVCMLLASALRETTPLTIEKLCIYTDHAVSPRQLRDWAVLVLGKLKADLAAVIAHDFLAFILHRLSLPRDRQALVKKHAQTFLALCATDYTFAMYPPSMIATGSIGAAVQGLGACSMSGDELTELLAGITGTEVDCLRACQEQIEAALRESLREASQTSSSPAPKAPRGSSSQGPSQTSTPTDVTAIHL
Change = VSAVRKLDFMDTM [S10M]; value = 0.405
Change = VSAVRKLYFSDTM [D8Y]; value = 0.495
Change = VSAVRKLDFHDTM [S10H]; value = 0.695
Change = VSAVKKLDFSDTM [R5K]; value = 0.186
Change = VSAVRKLDFSMTM [D11M]; value = 0.335
Change = VSAVRKLGFSDTM [D8G]; value = 0.105
Change = VSAVRKRDFSDTM [L7R]; value = 0.0454
Change = VWAVRKLDFSDTM [S2W]; value = 0.54
Change = VSACRKLDFSDTM [V4C]; value = 2.02
Change = VSAARKLDFSDTM [V4A]; value = 1.63
Change = VSALRKLDFSDTM [V4L]; value = 0.317
Change = VHAVRKLDFSDTM [S2H]; value = 0.416
Change = VSAVRKLDFSDVM [T12V]; value = 0.435
Change = VSAVRKLDFIDTM [S10I]; value = 0.291
Change = VSMVRKLDFSDTM [A3M]; value = 0.0684
Change = VSAVRKLDFSDCM [T12C]; value = 1
Change = VSAVRMLDFSDTM [K6M]; value = 0.547
Change = VVAVRKLDFSDTM [S2V]; value = 0.268
Change = VSAVRKLDFSPTM [D11P]; value = 0.807
Change = VSAVRKLDFWDTM [S10W]; value = 0.454
Change = VCAVRKLDFSDTM [S2C]; value = 0.733
Change = VSEVRKLDFSDTM [A3E]; value = -0.388
Change = VSAVRKLDFSDFM [T12F]; value = 0.971
Change = VAAVRKLDFSDTM [S2A]; value = 0.4
Change = VSAVRKLNFSDTM [D8N]; value = 0.765

Block 4
Target: Interferon regulatory factor 5, full length, phosphomimetic (IRF5, Homo sapiens, UniProt Q13568-2, residues 1-514, K96S/S451D/S453D/S456D/S462D)
Method: protein-binding microarray
Molecule type: double-stranded DNA, one strand shown
Medium: in vitro
Tested at: 250 nM
Notes: 60-bp whole probe
With: salmon DNA 0.4 mg/ml
Baseline: random background probes
Reading: higher = stronger binding
Quantity: log fluorescence
Shared flanks, not repeated: GCCTAGCAC … GTCTTGATTCGCTTGACGCTGCTG
Oligonucleotide = GACGGTTTCCCACTGCTGACGTGCTAG; value = 0.102 z-score
Oligonucleotide = TTAGCTATCGGTCTCGGTTAGTGCTAG; value = 7.28 z-score
Oligonucleotide = GACGGACTGGGACTGGGAACGTGCTAG; value = -0.732 z-score
Oligonucleotide = GACGATTTCGCGTTTCGAGACGTGCTA; value = 2.09 z-score
Oligonucleotide = TTAGTACTGGACTATCGGTTAGTGCTA; value = 6.07 z-score
Oligonucleotide = GCCGGTCTCCTTCTCCTGACGTGCTAG; value = -0.352 z-score
Oligonucleotide = TTAGATCTCAGTATAGATTAGTGCTAG; value = 0.352 z-score
Oligonucleotide = TTAGGTTTCCGACTGCTTTAGTGCTAG; value = 0.393 z-score
Oligonucleotide = CTAGGTTTCGGTATCGGTTAGTGCTAG; value = 10.6 z-score
Oligonucleotide = ACACTCTTCTTTTGCTAATTGTGCTAG; value = 1.26 z-score
Oligonucleotide = GACGGTATCGGTCTCGTGACGTGCTAG; value = 5.26 z-score
Oligonucleotide = TTAGGTCTCGTTCTCGGTTAGTGCTAG; value = 0.762 z-score
Oligonucleotide = GACCGTTCCGGTTTCGGGACGTGCTAG; value = 4.81 z-score
Oligonucleotide = TTAGCACTGGACACTGGGTTAGTGCTA; value = -0.452 z-score
Oligonucleotide = GACGGTTTCATTTTCCTGACGTGCTAG; value = 2.73 z-score
